Assay results gathered from unrelated publications.
A part holds a random share of what one study measured. Positions count from the first letter of the parent shown.

Study 1
Target: ABI1, truncated, D143A, DHFR fusion (Arabidopsis thaliana)
Method: DHFR PCA, deep sequencing
Medium: yeast
Notes: methotrexate growth selection, single substitutions
With: (+)-ABA 0.032 µM
Baseline: wild-type fitted maximum
Reading: higher = stronger binding
Endpoint: relative binding score
Parent: PYL1, truncated, DHFR fusion (Arabidopsis thaliana); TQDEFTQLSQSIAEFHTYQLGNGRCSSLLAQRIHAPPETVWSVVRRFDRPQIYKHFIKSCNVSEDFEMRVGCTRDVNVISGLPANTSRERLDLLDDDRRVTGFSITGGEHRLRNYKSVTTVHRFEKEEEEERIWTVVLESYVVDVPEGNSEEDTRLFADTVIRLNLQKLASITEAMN
T73L: 8.7%
I12W: 7.79%
P36K: 9.02%
V136L: 16%
N22T: 35.6%
C60M: -7.71%
L93A: 5.07%
G71D: -3.99%
N177T: 36%
Q51T: -11.2%
T101P: 0.915%
I105W: -4.6%
S150M: 11.6%
G23I: 2.31%
L28N: -7.69%
G148I: -13.6%
A170C: 5%

Study 2
Target: Histone acetyltransferase KAT6A, winged helix 2, GST fusion (KAT6A, Homo sapiens, UniProt Q92794, residues 85-181)
Method: protein binding microarray
Molecule type: double-stranded DNA, one strand shown
Medium: in vitro
Concentration: not given
Notes: 8-mer, flanks averaged, mean of 2 arrays, mostly near background
Baseline: not given
Reading: higher = stronger binding
Endpoint: E-score
Target sequence (chain): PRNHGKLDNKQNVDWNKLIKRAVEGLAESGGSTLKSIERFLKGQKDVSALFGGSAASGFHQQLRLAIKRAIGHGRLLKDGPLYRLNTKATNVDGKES
GCGTAACC: -0.178
ATAAGTCG: -0.2
GGCACTCA: -0.196
TGTAAGAA: 0.0496
CGCTGAAC: 0.122
AGTTAACT: -0.0578
CGAGAACA: 0.104
GTCAATAA: -0.123
CAGGCCCA: 0.00219
ACAAACGA: 0.0987
CGATGTAC: -0.225
CCACCTAC: -0.198
CAGTTCAA: -0.151
ACCTAGGT: -0.145
CCAAGTAC: -0.126
CAAGGCAG: 0.0235
GACTGGTA: 0.0412
CCGCAAAA: 0.165
AAGGCTCC: -0.183
ATGCAACG: 0.00694
GAAGTCTA: -0.264
ATGCATTA: -0.16
AATTCTTA: -0.0279
ACCCCCAG: -0.0343
ATACAGTC: -0.302

Study 3
Target: RNA binding protein fox-1 homolog 2, RRM domain, GST-SBP tag (RBFOX2, Homo sapiens, UniProt O43251-10, residues 100-194)
Method: RNA Bind-n-Seq
Molecule type: RNA
Medium: in vitro
Concentration: 365 nM
Notes: natural RNA segment, single round, ends assumed
Baseline: no-protein control
Reading: higher = stronger binding
Endpoint: RBNS enrichment (R)
Constant ends, left off below: GGGAGUUCUACAGUCCGACGAUC … UGGAAUUCUCGGGUGCCAA
Residues (chain): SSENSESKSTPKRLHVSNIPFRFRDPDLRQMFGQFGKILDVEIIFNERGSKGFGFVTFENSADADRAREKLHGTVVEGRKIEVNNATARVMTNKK
AAAAACUCUUAAGAGUUCCUUUAUAUCAUAUUCUUCAGAGCCAACAUUUGUCCUCAAAGCAACGUUUCCCACCUCCUUUUACUGAGUACUGAAAAAGUUUUAGCAAAGUC: 0.443
UGCCCCAGGGGGGCCUCCCUCCUGAGGCUCAAGCUCCUGGCGUCUUUCUUCCUGUUGCUGGAUUCUCACCUCCAUGGGCCUGUCUCUUCUGCCUCUGCCUUCUGGACACC: 0.277
CAUGUGAGGUUGUGGUCACAGCAUGGGGGCCUUGAGAGCCUGGCCAGGUGGCCCUCCACGUGAGGUCAUGGUCACAGCAUGGAGGCCUUGAGAGCCUGGCCAGGUGGCCC: 6.25
AAAGCCUGCACUGCACCAAAGCUACGGGUCCCUGUGUUUCCUCUAUUCAGUGAUGUCAUCAACCUCACUGUCCCAGCCCAUGUGUGACUAAAGUGCCCGGUUUUAGCCAC: 1.57
UCUUAUGUACUAUCCAAAAGUGCCAGAAUGACUCUUCUGUGCAUUCUUCUUAAAGAGCUGCUUGGUUAUCCAAAAAUGAAAAUUCAAAAUAAACUCUGAAGAAAAGGAAA: 0.733
CCCCAAACCCCUGGGCAUUGUUGUCUGCUCAAGAGAUUCUACUGGAAGCAUGAUGACCCACCUGUCUGGGAAGAGAAAACCUCAAGAAGGCAAAGUGCAGUGCGUGUUUG: 4.08
AUCUUUAGCCCCCUGAUCUGUCUCAACAGUCUGGGCCUCAGUGCUAGGGGCCAGAGCACCUCUAGGCUGAUUCCUCACCUUUUGGGUCUGAGGGCAGCUGCUCUCCCAGC: 0.259
GACAGAUGGUCCUUAACUACUCAAUGACAGAGGCAGUUACUGUGAGAGACUUCUAGGAAUCUUUUUCUUCUCAUAGCGAAGUCAAAGCUCUCUCUGAAUGUACUGUGUGA: 0.62

Study 4
Target: CCND2, cyclin fold, Cln2 fusion (human)
Method: yeast growth competition, sequencing
Medium: yeast
Notes: weak parent motif
Baseline: not given
Reading: higher = stronger binding
Endpoint: normalised enrichment score
Parent: RB1 docking peptide (human); PKPLKKLRFDIEG; partner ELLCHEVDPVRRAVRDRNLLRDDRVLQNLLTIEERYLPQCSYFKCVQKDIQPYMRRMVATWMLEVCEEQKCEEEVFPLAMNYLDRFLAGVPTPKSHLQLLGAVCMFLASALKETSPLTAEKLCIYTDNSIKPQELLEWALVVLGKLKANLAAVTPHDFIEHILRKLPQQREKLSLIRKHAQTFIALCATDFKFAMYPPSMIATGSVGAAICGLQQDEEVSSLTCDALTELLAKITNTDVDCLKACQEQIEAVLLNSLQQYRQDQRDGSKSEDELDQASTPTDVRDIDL
E12D: 0.181
G13A: -0.0545
R8E: 0.23
P1R: 0.00515
K2S: 0.164
I11P: 0.249
K5A L7A: -0.128
L4E: 0.234
P1E: 0.482
I11M: 0.0207
I11F: 0.192
P3D: 0.42
K6N: -0.137
G13L: 0.243
D10F: -0.0783
L4N: 0.374
I11H: 0.491
L4D: 0.864
D10H: 0.124

Study 5
Target: CEBPD, bZIP domain (human)
Method: DHFR protein complementation
Medium: yeast
Notes: single substitutions, most at no-binding floor
Baseline: wild-type JUN-FOS pair
Reading: higher = stronger binding
Endpoint: binding fitness
Parent: JUN, bZIP domain (human); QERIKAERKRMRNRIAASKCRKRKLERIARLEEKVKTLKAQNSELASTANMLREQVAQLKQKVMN; partner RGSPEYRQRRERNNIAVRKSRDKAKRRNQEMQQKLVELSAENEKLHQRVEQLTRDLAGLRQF
I28T: -1.32 natural log
K34L: -1.29 natural log
V56K: -1.43 natural log
R53A: -1.02 natural log
E54A: -1.32 natural log
L31V: -1.37 natural log
L45Q: -1.5 natural log
A49D: -1.47 natural log
S43R: -1.29 natural log
L38F: -1.47 natural log
T48F: -1.43 natural log
E44I: -1.35 natural log
E54C: -1.34 natural log
L38R: -1.46 natural log
E54P: -1.54 natural log
L31F: -1.47 natural log
K36G: -1.42 natural log
A49M: -1.39 natural log
K39G: -1.37 natural log
L52Y: -1.47 natural log
M51D: -1.12 natural log
Q41N: -1.38 natural log
T37A: -1.34 natural log
Q41D: -1.44 natural log
Q55P: -1.5 natural log

Excerpt of the above (study 5):
E54P: -1.54 natural log
Q41D: -1.44 natural log
A49D: -1.47 natural log
L52Y: -1.47 natural log
K34L: -1.29 natural log
L31V: -1.37 natural log
